Measurements of several laboratories.
“And” joins repeats or separate records; there may be more than shown. Numbers after ± are the reported error.
Chain of UniProt P24723 (whole entry, looked up): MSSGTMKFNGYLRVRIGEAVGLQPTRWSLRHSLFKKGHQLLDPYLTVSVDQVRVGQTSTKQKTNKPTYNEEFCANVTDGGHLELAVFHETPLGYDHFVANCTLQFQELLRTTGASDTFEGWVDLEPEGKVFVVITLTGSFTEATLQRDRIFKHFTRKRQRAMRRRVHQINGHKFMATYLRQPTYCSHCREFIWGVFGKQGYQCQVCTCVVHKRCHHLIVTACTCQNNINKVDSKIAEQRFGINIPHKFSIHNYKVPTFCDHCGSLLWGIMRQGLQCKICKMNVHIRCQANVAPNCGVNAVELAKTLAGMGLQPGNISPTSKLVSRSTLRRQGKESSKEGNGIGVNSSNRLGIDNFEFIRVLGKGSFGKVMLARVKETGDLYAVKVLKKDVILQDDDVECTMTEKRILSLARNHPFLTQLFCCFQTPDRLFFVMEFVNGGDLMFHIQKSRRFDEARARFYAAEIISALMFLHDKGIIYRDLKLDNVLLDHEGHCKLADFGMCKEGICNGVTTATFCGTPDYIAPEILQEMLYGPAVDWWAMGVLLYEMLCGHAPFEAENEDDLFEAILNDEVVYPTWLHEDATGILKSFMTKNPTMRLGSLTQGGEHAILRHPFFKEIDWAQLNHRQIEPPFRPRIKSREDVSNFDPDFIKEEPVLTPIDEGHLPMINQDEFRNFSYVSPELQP
Chain of UniProt P49760 (whole entry, looked up): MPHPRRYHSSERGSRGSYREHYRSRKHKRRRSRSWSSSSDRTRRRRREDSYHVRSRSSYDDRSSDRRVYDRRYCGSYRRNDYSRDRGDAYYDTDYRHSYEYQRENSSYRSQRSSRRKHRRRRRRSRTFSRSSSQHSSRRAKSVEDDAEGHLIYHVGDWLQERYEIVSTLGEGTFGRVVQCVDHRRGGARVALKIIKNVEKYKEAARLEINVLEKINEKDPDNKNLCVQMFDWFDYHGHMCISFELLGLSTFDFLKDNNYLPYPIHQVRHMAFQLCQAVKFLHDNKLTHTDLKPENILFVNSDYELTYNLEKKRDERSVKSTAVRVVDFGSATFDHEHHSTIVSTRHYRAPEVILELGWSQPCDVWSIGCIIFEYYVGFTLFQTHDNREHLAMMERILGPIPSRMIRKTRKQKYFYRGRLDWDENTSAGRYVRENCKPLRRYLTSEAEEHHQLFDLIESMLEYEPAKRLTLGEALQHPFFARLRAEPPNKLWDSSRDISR

SMILES = COc1ccccc1-c1n[nH]c2nc(N[C@H]3CC[C@H](NS(=O)(=O)CC(C)C)CC3)ncc12; test = bead binding, competition bead pull-down, measured: LINJ.30.2340; test system = Leishmania donovani extract; conditions = 10 µM; scale = relative to: vehicle; quantity = relative abundance; result = 0.88
SMILES = CN(C)[C@H]1C[C@@]23CC[C@@]4(O2)C(=CC[C@]2(C)[C@@H](c5ccc6ccncc6c5)CC[C@H]24)C=C3[C@@H](O)[C@@H]1O; target or system = Dual specificity protein kinase CLK2 (CLK2, Homo sapiens, UniProt P49760); test = ATP probe labelling, inhibitor, KiNativ profiling; conditions = 1 µM; quantity = inhibition; result = 10.3%
SMILES = CCOC(=O)C1(Cc2ccccc2)Oc2cc(F)ccc2N(Cc2ccccc2)C1=O (stereo not drawn); target or system = L02; test = cell growth or viability, CCK-8; conditions = 6.25 µM, 72 h; quantity = inhibition; result = 0.22%
SMILES = CN1CCN(c2cccc(-c3ccc4ncnc(Nc5ccc(OCc6cccc(F)c6)c(Cl)c5)c4c3)c2)CC1; target or system = Plasmodium falciparum; test = parasite growth, SYBR Green fluorescence; test system = W2, drug-resistant; quantity = EC50; result = 59 nM
SMILES = CC[C@H](C)[C@H](NC(=O)[C@H](CO)NC(=O)[C@H](Cc1ccc(O)cc1)NC(=O)[C@H](Cc1ccc(O)cc1)NC(=O)[C@H](CC(N)=O)NC(=O)CNC(=O)[C@H](CO)NC(=O)[C@H](Cc1ccc(O)cc1)NC(=O)[C@H](CO)NC(=O)[C@H](CO)NC(=O)[C@H](CC(N)=O)NC(=O)COCCOCCNC(=O)CN1CCN(CC(=O)O)CCN(CC(=O)O)CCN(CC(=O)O)CC1)C(=O)N[C@@H](CC(C)C)C(N)=O [copper-64 labelled]; test = ex vivo PET; test system = C57BL/6 mice, liver; conditions = intravenous, 4.6 MBq/mouse; quantity = tissue uptake; result = 1.7 %ID/mL
SMILES = O=C1NC2(CC2)COc2ncc(F)cc2[C@H]2COCCN2c2ccn3ncc1c3n2; test system = Sprague-Dawley rat, female, heart; conditions = oral, 10 mg/kg/day, 4 weeks dosing, end of recovery; quantity = organ-to-brain weight ratio; result = 57.2 ± 4.66%
SMILES = COc1ccccc1-c1n[nH]c2nc(NC3CCN(C(=O)Cc4ccc(F)cc4F)CC3)ncc12; test = bead binding, competition bead pull-down, measured: LINJ.35.1420; test system = Leishmania donovani extract; conditions = 10 µM; scale = relative to: vehicle; quantity = relative abundance; result = 1
SMILES = CC(C)C[C@@H]1NC(=O)[C@@H](Cc2c[nH]c3ccccc23)NC(=O)[C@H](CCCNC(=N)N)NC(=O)[C@@H](CCC(=O)O)NC(=O)[C@H](CCC(N)=O)NC(=O)[C@@H](CCC(=O)O)NC(=O)[C@H](CCCNC(=N)N)NC(=O)[C@@H](Cc2c[nH]c3ccccc23)NC1=O; test = measured: LIF; test system = LDLr-/- mouse on Western diet, liver; conditions = dose not given, 4 weeks; quantity = cytokine level; result = 7.1 ± 4 pg/g tissue
SMILES = Cc1cc(C(=O)Nc2nc3cccc(C)c3n2[C@H]2CCCCN(C(=O)/C=C/CN(C)C)C2)ccn1; target or system = Trypanosoma brucei; test = cell growth, Alamar Blue; test system = 2T1 overexpressing Tb927.8.7220; scale = relative to: parental 2T1; quantity = EC50 fold shift; result = 0.65 fold and 1.52 fold
SMILES = CC(C)(C)C(=O)OCOP(=O)(OCOC(=O)C(C)(C)C)C1CCCN(O)C1=O (stereo not drawn); target or system = IGROV-1; quantity = log TGI; result = -5.56 log M
SMILES = CC(C)CC(C(=O)N1CC2(CC1C#N)C(=O)Nc1ccccc12)N(C)C(=O)c1cc2c(F)cc(F)c(F)c2[nH]1 (stereo not drawn); target or system = Human coronavirus 229E; test = cytopathic effect; test system = MRC5; conditions = 516.5 pM; quantity = inhibition; result = 10.1%
SMILES = CS(C)(=O)=Nc1ccc(-c2ccc(-c3nc4cc(O[C@@H]5CO[C@H]6[C@@H]5OC[C@H]6O)[nH]c4cc3F)cc2)cc1; target or system = Protein kinase C eta type (PRKCH, Homo sapiens, UniProt P24723); test = enzyme activity, inhibitor; conditions = 10 µM; quantity = inhibition; result = 6%
SMILES = Cc1cc(Oc2nc(N3CC[C@@H](c4ccncc4)C3)ncc2F)[nH]n1; target or system = Mycobacterium tuberculosis; test system = THP-1, H37Rv non-replicating; conditions = 0.9489 µM, day 4 plus 1; quantity = normalised growth; result = 51.2% and 44.8%
SMILES = CCCC/C=C/C(=O)N[C@@H](Cc1csc2ccccc12)C(=O)N[C@H]1COC(=O)[C@@H]2C[C@@H](C)CN2C(=O)[C@H](C)NC(=O)[C@@H]2CCCCN2C(=O)[C@@H]2CCCN2C1=O; target or system = human coronavirus 229E; test system = Huh-7 CLPP knock-out 1; conditions = concentration not given, unit not given; scale = relative to: DMSO; quantity = RNA release; result = 0.0546 and 0.0703 and 0.0383
SMILES = O=C1NC(=O)c2c1c1cc(F)c[n+]3c1c1c2c2cc(O)ccc2[n]1[Ru-4]312([N]=C=S)[S+]3CC[S+]1CC[S+]2CC3 (stereo not drawn); target or system = Protein kinase C alpha type (PRKCA, Homo sapiens, UniProt P17252); test = enzyme activity; conditions = 100 nM, human enzyme, together with: 10 µM ATP; scale = relative to: untreated; quantity = remaining activity; result = 94%

Some of these lines once more:
SMILES = CC(C)(C)C(=O)OCOP(=O)(OCOC(=O)C(C)(C)C)C1CCCN(O)C1=O (stereo not drawn); target or system = IGROV-1; quantity = log TGI; result = -5.56 log M
SMILES = CC(C)CC(C(=O)N1CC2(CC1C#N)C(=O)Nc1ccccc12)N(C)C(=O)c1cc2c(F)cc(F)c(F)c2[nH]1 (stereo not drawn); target or system = Human coronavirus 229E; test = cytopathic effect; test system = MRC5; conditions = 516.5 pM; quantity = inhibition; result = 10.1%
